Measurements from different studies.
Protocols differ between the studies behind these lines.

`Cc1noc(C)c1-c1cc(C(O)(c2ccccn2)c2ccccn2)c2nc(C3CC3)[nH]c2c1` gave a Tmax of 0.5 h (human, fasted, plasma; oral, 3 mg, cycle 1 day 15, added: enzalutamide once daily).
For `Cc1cc(C)c(CNC(=O)c2cc(Cl)c3c(c2C)O[C@@](C)([C@H]2CC[C@H](N(C)C)CC2)O3)c(=O)[nH]1`, “Tmax total drug” read 3.79 h (human, plasma; oral, 200 mg, cycle 1 day 15).
`O=C(COc1ccc(Cl)cc1)NC12CC(c3nnc([C@H]4C[C@@H](OC(F)(F)F)C4)o3)(C1)C2` gave a tmax of 23.8 h (healthy human both sexes, plasma; oral, 260 mg once daily, day 1, median fasted).
With `COC(=O)N[C@@H](C)CNc1nccc(-c2cn(C(C)C)nc2-c2cc(Cl)cc(NS(C)(=O)=O)c2F)n1` the Tmax median was 1.93 h (humans, plasma; oral, day 14, steady state, added: binimetinib).
`C=CC(=O)Nc1cc(Nc2nccc(-c3c[nH]c4ccccc34)n2)c(OC)cc1N(C)CCN(C)C`: “Tmax at steady state” 4 h (human, plasma; cycle 3 day 1, osimertinib plus chemotherapy, randomized arm).
The Tmax of `Cc1cn(C(=O)c2c(-c3c(Cl)cc(Cl)cc3Cl)noc2C(C)(C)F)c2cccc(/C=C/C(=O)O)c12` is reported as 3.03 h (human patients; 1000 mg bid, cycle 8 day 1).
`Cc1nc2ccc(F)cc2n1-c1nc(N)c(F)c(Nc2ccc(C(F)(F)F)cc2)n1` has a Tmax median of 3.94 h (human patients, plasma; oral, 200 mg twice weekly, cycles 1 and 2 pooled).
The Tmax of `Cn1ncnc1[C@H]1c2n[nH]c(=O)c3cc(F)cc(c23)N[C@@H]1c1ccc(F)cc1` is reported as 2 h (human patients, plasma; oral, 600 µg/m2 twice daily, day 1, monotherapy, dose level DL5, median).
For `CCCOc1ccc(NC(=O)CN2CCN(C)CC2)cc1-c1nc(CC)c(CC)c(=O)[nH]1`, the Tmax (median) was 2 h (human, fasting, plasma; oral, 10 mg, added: placebo).
With `COc1cc(N2CCC(N3CCN(C)CC3)CC2)ccc1Nc1ncnc(Nc2ccccc2S(=O)(=O)C(C)C)n1` the tmax was 2.53 h (human, plasma; oral, 125 mg, day 1).
With `C[C@@H](Oc1ccc(S(C)(=O)=O)cc1C(=O)N1C[C@@H]2C[C@]2(c2cc(C(F)(F)F)on2)C1)C(F)(F)F` the Tmax difference was 1 h (healthy human volunteers; oral, 10 mg single, median; relative to: fasted, fed earlier).
The Tmax (median) of `CN(C)N=Nc1[nH]cnc1C(N)=O` is reported as 1 h (human patients, plasma; intravenous, 1000 mg/m^2 over 1 h, cycle 1 day 1 after infusion start, given alone).
Under “Tmax at steady state”, `N#Cc1ccc2c(c1)[C@H]1CCCN(C(=O)c3ccc4[nH]cnc4c3)[C@H]1C2` is recorded as 0.667 h (human, plasma; oral, 240 mg once daily, median).
For `COc1cc(C(=O)NC2CCN(C)CC2)c(F)cc1Nc1ncc(C(F)(F)F)c(Oc2cccc3c2C(=O)N(C)C3)n1`, “Tmax steady state” read 2 h (human, Taiwanese, plasma; oral, 200 mg once daily multiple dose, median).
For `CCO`, the Tmax (median) was 0.57 h (human, breath; 0.5 g/kg, added: placebo).
`COc1ncc(-c2nc3c(n2C(C)C)[C@H](c2ccc(Cl)cc2)N(c2cc(Cl)cn(C)c2=O)C3=O)c(OC)n1` has a Tmax of 3.6 h (LC-MS/MS, noncompartmental; human, plasma; oral, 120 mg, C2D1, high-dose, median).
With `O=C(Nc1cnccc1Cl)N1CCN(Cc2ccc3c(c2)OC(F)(F)O3)CC1` the tmax was 1 h (human healthy young women, plasma; oral, 100 mg once daily, day 1, multiple dose median).
For `COc1cc(C(=O)NC2CCN(C)CC2)c(F)cc1Nc1ncc(C(F)(F)F)c(Oc2cccc3c2C(=O)N(C)C3)n1`, “Tmax at steady state” read 1 h (human patients, plasma; oral, 50 mg once daily repeated, median).
`C=CC(=O)Nc1cc(Nc2nccc(-c3cn(C)c4ccccc34)n2)c(OC)cc1N(C)CCN(C)C`: “Tmax at steady state” 4.5 h (human, plasma; oral, cycle 3 day 1, osimertinib plus chemotherapy, randomized arm).
For `C[C@@H](Cn1ccc(-c2ccc(C#N)c(Cl)c2)n1)NC(=O)c1cc([C@@H](C)O)[nH]n1`, the tmax was 0.25 h (healthy male human, plasma; intravenous infusion, 100 µg 14C-labelled, 15 min infusion, microtracer, median).
With `CC#CC(=O)N1CC[C@@H](n2c(=O)n(-c3ccc(Oc4ccccc4)cc3)c3c(N)ncnc32)C1` the Tmax (median) was 2.85 h (human, fasted, plasma; oral, 300 mg twice daily, cycle 1 day 1).
`COc1c(N2C[C@@H]3CCCN[C@@H]3C2)c(F)cc2c(=O)c(C(=O)O)cn(C3CC3)c12` — result for “tmax at steady state”: 2 h (human, plasma; oral, 400 mg, day 5).
For `Cc1cc(Nc2ncnc3ccc(NC4=NC(C)(CO)CO4)cc23)ccc1Oc1ccn2ncnc2c1` (centres unmarked), the Tmax (median) was 2 h (human, plasma; oral, 300 mg tucatinib single dose, day 1, tucatinib alone).

Excerpt of the above:
Under “Tmax at steady state”, `N#Cc1ccc2c(c1)[C@H]1CCCN(C(=O)c3ccc4[nH]cnc4c3)[C@H]1C2` is recorded as 0.667 h (human, plasma; oral, 240 mg once daily, median).
With `COC(=O)N[C@@H](C)CNc1nccc(-c2cn(C(C)C)nc2-c2cc(Cl)cc(NS(C)(=O)=O)c2F)n1` the Tmax median was 1.93 h (humans, plasma; oral, day 14, steady state, added: binimetinib).
For `C[C@@H](Cn1ccc(-c2ccc(C#N)c(Cl)c2)n1)NC(=O)c1cc([C@@H](C)O)[nH]n1`, the tmax was 0.25 h (healthy male human, plasma; intravenous infusion, 100 µg 14C-labelled, 15 min infusion, microtracer, median).
